Measured values of several laboratories.
Compare with care: the assays were run in different laboratories. ± marks the error that the study gave.
CYP2D6: Cytochrome P450 2D6 (CYP2D6, Homo sapiens, UniProt P10635)
UniProt P00760, sequence (whole entry, looked up): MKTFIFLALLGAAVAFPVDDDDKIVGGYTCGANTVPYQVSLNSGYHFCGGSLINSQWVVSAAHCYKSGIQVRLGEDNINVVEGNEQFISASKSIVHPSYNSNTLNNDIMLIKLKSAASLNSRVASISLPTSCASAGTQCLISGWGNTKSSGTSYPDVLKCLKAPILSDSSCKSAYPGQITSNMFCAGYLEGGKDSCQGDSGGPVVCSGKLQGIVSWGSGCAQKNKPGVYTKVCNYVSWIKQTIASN
UniProt P00729, sequence (whole entry, looked up): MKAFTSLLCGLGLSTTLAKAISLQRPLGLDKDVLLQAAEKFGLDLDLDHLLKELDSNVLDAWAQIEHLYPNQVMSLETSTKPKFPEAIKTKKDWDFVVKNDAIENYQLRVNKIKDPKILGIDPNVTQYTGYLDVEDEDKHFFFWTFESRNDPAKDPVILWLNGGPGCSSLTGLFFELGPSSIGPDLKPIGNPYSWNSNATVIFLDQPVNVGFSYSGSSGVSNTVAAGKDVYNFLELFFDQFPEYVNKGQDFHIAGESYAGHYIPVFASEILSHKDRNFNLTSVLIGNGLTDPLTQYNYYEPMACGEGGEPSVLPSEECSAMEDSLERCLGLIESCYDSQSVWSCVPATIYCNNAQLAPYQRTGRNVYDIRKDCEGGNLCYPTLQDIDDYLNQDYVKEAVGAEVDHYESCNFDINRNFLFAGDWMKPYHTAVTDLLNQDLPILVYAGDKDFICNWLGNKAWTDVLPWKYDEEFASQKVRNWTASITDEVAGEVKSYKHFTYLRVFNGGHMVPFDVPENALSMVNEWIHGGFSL
UniProt O95342, sequence (whole entry, looked up): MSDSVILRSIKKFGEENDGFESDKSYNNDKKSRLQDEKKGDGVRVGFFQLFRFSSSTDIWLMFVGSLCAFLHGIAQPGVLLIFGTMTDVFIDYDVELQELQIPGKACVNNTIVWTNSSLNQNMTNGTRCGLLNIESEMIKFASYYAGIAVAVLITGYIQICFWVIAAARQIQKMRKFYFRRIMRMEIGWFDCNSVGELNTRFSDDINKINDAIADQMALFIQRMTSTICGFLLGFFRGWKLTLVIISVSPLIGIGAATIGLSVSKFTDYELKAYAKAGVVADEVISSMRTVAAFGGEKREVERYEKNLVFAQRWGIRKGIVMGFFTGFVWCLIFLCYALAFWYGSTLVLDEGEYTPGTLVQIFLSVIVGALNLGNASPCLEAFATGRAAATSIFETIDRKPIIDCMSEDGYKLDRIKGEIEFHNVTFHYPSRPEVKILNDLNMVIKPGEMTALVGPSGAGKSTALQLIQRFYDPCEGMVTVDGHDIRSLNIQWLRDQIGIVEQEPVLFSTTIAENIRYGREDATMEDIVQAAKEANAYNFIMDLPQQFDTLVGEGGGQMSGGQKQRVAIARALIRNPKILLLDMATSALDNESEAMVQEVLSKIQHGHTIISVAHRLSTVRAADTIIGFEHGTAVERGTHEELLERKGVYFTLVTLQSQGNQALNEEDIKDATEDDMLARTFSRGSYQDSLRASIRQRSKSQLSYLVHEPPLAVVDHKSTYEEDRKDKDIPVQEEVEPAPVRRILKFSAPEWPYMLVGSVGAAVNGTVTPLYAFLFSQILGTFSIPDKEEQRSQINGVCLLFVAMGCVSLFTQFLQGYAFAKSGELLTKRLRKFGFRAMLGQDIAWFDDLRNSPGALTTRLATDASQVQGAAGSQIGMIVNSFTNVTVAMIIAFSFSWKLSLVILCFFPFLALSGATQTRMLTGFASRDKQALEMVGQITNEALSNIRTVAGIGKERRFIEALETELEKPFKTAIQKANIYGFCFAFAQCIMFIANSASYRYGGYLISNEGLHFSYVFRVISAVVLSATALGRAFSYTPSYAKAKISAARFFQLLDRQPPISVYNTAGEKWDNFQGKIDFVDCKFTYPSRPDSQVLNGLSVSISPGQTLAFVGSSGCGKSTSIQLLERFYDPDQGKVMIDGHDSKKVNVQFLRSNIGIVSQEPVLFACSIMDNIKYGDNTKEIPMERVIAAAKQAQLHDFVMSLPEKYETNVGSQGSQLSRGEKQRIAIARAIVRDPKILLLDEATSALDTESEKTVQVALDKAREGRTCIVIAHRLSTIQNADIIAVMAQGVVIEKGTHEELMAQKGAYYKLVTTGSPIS
UniProt Q12809, sequence (whole entry, looked up): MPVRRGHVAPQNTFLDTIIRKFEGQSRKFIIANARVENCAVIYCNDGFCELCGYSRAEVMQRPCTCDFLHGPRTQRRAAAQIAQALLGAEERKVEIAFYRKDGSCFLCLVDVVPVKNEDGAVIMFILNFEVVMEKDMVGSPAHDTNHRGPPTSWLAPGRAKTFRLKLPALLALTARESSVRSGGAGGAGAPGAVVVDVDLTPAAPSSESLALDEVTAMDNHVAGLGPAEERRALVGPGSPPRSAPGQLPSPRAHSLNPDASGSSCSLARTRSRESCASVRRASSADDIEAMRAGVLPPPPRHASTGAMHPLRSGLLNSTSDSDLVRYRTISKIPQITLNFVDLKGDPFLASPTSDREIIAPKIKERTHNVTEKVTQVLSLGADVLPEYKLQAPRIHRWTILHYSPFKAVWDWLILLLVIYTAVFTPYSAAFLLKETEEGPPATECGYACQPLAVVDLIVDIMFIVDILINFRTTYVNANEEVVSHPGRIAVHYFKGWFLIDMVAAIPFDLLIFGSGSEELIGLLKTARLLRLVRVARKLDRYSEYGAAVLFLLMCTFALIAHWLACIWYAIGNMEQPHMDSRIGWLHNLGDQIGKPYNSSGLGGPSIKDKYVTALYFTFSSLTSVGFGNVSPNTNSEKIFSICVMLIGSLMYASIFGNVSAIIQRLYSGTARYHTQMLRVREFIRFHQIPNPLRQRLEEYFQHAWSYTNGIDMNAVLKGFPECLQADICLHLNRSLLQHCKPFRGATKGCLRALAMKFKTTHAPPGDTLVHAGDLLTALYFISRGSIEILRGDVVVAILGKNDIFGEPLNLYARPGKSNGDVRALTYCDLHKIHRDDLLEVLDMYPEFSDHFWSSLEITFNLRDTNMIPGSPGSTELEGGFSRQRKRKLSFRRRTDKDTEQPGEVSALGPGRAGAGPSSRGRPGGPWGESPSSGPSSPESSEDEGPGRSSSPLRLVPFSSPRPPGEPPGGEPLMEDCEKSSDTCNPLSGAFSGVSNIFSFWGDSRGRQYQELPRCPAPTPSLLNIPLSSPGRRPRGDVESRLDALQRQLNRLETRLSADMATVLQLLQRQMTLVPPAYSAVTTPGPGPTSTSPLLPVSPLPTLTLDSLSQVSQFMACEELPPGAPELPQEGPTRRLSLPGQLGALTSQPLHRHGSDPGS
UniProt P20813, sequence (whole entry, looked up): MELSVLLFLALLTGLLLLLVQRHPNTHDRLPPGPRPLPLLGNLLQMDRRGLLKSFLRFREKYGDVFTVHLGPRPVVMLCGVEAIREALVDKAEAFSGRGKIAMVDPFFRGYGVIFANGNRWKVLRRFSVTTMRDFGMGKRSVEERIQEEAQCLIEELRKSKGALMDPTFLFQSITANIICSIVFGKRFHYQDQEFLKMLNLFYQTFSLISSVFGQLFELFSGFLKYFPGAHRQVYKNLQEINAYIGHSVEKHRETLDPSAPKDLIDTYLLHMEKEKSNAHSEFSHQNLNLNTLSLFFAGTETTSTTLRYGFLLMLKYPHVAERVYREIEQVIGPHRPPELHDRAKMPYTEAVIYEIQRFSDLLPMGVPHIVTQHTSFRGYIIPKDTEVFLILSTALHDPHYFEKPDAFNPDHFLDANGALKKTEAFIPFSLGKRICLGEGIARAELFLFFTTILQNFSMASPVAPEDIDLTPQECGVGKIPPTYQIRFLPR

SMILES | target | assay | test system | conditions | how to read | quantity | value
CNC(=O)C1CCCN(C(=O)C2CC3CCC2N3C(=O)[C@@H]2C[C@@H](O)CN2C(=O)NCc2cccc(Cl)c2F)C1 (mixture of isomers) | CYP3A4 (human) | inhibitor, time-dependent inhibition |  | 16.7 µM, preincubated without NADPH, with: midazolam substrate | relative to: negative control | remaining activity | 105%
CC(=O)NCCCC[C@@H]1NC(=O)[C@H](Cc2c[nH]c3c(C)cccc23)NC(=O)[C@H]([C@@H](C)O)NC(=O)[C@H](CC(N)=O)NC(=O)[C@@H](NC(C)=O)C(C)(C)SSC(C)(C)[C@@H](C(=O)N[C@@H](Cc2ccc(OCCN)cc2)C(=O)N[C@@H](Cc2ccc3ccccc3c2)C(=O)NC2(C(=O)N[C@@H](CCC(=O)O)C(=O)N[C@@H](CC(N)=O)C(=O)N[C@@H](Cc3cccnc3)C(=O)N(C)CC(N)=O)CCOCC2)NC1=O | human alpha-1-acid glycoprotein 0.14% | equilibrium dialysis |  | 0.1 µM |  | fraction unbound | 91.5 ± 0.7%
Cc1cc(-c2ccc3ccccc3c2)nnc1NCCN1CCN(C)CC1 | ABCB11 (Homo sapiens, UniProt O95342) | transporter uptake, inhibitor |  | 10 µM |  | inhibition | 23%
C[C@@H](c1ccc2nccn2c1)n1nnc2ncc(-c3cn[nH]c3)nc21 | Cytochrome P450 2B6 (CYP2B6, Homo sapiens, UniProt P20813) | enzyme activity, inhibitor | human, liver microsomes |  |  | IC50 | > 30 µM
CC(C)C[C@H](NC(=O)[C@H](C)NC(=O)CNC(=O)CCCCCNC(=O)C1CC2C=CC1C2)C(=O)N[C@H](C(=O)N1CCC[C@H]1C(=O)N[C@@H](CCCNC(=N)N)C(=O)NCC(=O)N[C@@H](C)C(=O)N[C@@H](CC(=O)O)C(=O)N[C@@H](CO)C(=O)NCC(=O)N[C@@H](CO)C(=O)NCC(N)=O)[C@@H](C)O (stereo partly shown) | α-chymotrypsin | substrate, HPLC | DPBS | 200 µM, 50 min, 37 °C, with: chymotrypsin 1.0 µM |  | cleavage | 56%
O=C(CN1C(=O)C2(CCN(C(=O)c3cnc4[nH]ncc4c3)CC2)c2c(Cl)cccc21)NCC(F)(F)F | CYP2D6 | enzyme activity, inhibitor |  |  |  | IC50 | 4 µM
CC[C@H](C)[C@@H]1NC(=O)[C@H](CC(C)C)NC(=O)[C@@H](NC(=O)[C@H](CCC(N)=O)NC(=O)[C@H](CCCCN)NC(=O)[C@H](CC(N)=O)NC(=O)[C@H](Cc2ccc(O)cc2)NC(=O)[C@@H]2CCC(=O)NCC(=O)NCC(=O)NCC(=O)NCC(=O)N[C@@H](CCCNC(=N)N)C(=O)NCC(=O)N[C@@H](Cc3ccc(O)cc3)C(=O)N2)CSSC[C@@H](C(=O)O)NC(=O)[C@H](Cc2ccccc2)NC1=O | Carboxypeptidase Y (Saccharomyces cerevisiae, UniProt P00729) | substrate, LC-MS |  | 20 h, room temperature |  | proteolytic stability | stable
CCCCCn1ccc(C(=O)NC(C)(C)c2ccc(CNC(C)=O)cc2)n1 | CYP3A4 human | RT-qPCR, item: CYP3A4 mRNA | HepaRG | concentration not given | relative to: positive control | CYP induction | < 10%
CC(C)C[C@H](NC(=O)[C@H](CC(C)C)NC(=O)[C@H](CCCCN)NC(=O)[C@H](Cc1ccccc1)NC(=O)[C@@H](NC(=O)[C@H](CCCNC(=N)N)NC(=O)[C@@H](N)CCCCN)C(C)C)C(=O)N[C@@H](CCCCN)C(=O)N[C@@H](CCCNC(=N)N)C(=O)N[C@@H](Cc1ccc(O)cc1)C(=O)N[C@@H](Cc1c[nH]c2ccccc12)C(=O)N[C@@H](CCCNC(=N)N)C(=O)N[C@@H](CCC(N)=O)C(=O)N[C@@H](CC(C)C)C(=O)N[C@@H](CCCCN)C(=O)N[C@@H](CCCCN)C(=O)N1CCC[C@H]1C(=O)N[C@H](C(=O)N[C@@H](CCCNC(=N)N)C(=O)NCCOCCOCC(=O)O)C(C)C | Serine protease 1 (PRSS1, Bos taurus, UniProt P00760) | HPLC |  | 1 mg/mL, 30 min, 37 °C, with: enzyme to peptide 50:1 |  | intact peptide remaining | 83 to 87%
CCc1nnc(-c2c(OC)cc(-c3cnc4cc(-c5cnn(C)c5)ccn34)cc2OC)o1 | KCNH2 (Homo sapiens, UniProt Q12809) | ligand displacement, radioligand |  | 10 µM |  | binding vs control | 97.1%
CN[C@@H]1[C@H](O)[C@H](NC)[C@H]2O[C@]3(O)[C@H](O[C@@H]2[C@H]1O)O[C@H](C)C[C@H]3NC(=O)Cc1ccc(Cl)cn1 | CYP2D6 |  |  | 10 µM |  | inhibition | 5%
CCCCCCCCCCCC(=O)C(C)C(=O)N1CCC[C@H]1C(=O)NC(C)(C)C(=O)NC(C)(C)C(=O)NC(C)(C)C(=O)N[C@](C)(CC)C(=O)NCCC(=O)N[C@@H](C)C(=O)N[C@](C)(CC)C(=O)N[C@@H](C)C(=O)N[C@@H](CC(C)C)C(=O)N[C@](C)(CC)C(=O)NCCC(=O)N[C@@H](C)C(=O)N[C@](C)(CC)C(=O)NCCC(=O)N[C@@H](C)C(=O)NC(C)(C)C(=O)NC(C)(C)C(=O)NC(C)(C)C(=O)N[C@@H](C)C(=O)N[C@@H](CC(=O)O)C(=O)O (stereo partly shown) | human neutrophil elastase | LC-MS |  | 40 µM, 120 min, pH 7.5, 37 °C | relative to: 0 h | remaining intact peptide | 64.9%
CCN(CC)CCOc1ccc(-c2nnn(Cc3ccc(OC)cc3)c2N)cc1 | CYP2D6 | inhibitor |  |  |  | IC50 | > 50 µM

For quick reference, copied from above:
SMILES | target | assay | test system | conditions | how to read | quantity | value
CC(C)C[C@H](NC(=O)[C@H](C)NC(=O)CNC(=O)CCCCCNC(=O)C1CC2C=CC1C2)C(=O)N[C@H](C(=O)N1CCC[C@H]1C(=O)N[C@@H](CCCNC(=N)N)C(=O)NCC(=O)N[C@@H](C)C(=O)N[C@@H](CC(=O)O)C(=O)N[C@@H](CO)C(=O)NCC(=O)N[C@@H](CO)C(=O)NCC(N)=O)[C@@H](C)O (stereo partly shown) | α-chymotrypsin | substrate, HPLC | DPBS | 200 µM, 50 min, 37 °C, with: chymotrypsin 1.0 µM |  | cleavage | 56%
